Assay results pooled from the literature.
Parts stem from different laboratories: compare values within a part only.

Study 1 — method: DNA-protein interaction ELISA; molecule type: double-stranded DNA, one strand shown; medium: in vitro, bacterial lysate; concentration: not given; notes: whole dsDNA probe, crude lysate protein; reference: highest signal in screen; direction: higher = stronger binding
Target: Probable WRKY transcription factor 33, C-terminal DNA-binding domain (WRKY33, Arabidopsis thaliana, UniProt Q8S8P5, residues 346-449)
Target sequence (chain): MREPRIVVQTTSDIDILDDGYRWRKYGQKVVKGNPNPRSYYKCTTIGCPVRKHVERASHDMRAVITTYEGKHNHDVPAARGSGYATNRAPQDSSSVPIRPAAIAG
Strand | relative absorbance
AAAAAACCTACGATGGTTCTGATCTTAAAA | 37.2 % of maximum
AAAAAAGGTAGTCACATTACGAGGGTAAAA | 39.1 % of maximum
AAAAAAACAGCTCGGTGCCACTGTGGAAAA | 45.1 % of maximum

Study 2 — method: universal PBM; molecule type: double-stranded DNA, one strand shown; medium: in vitro; concentration: not given; direction: higher = stronger binding
Target: Sal-like protein 4, full length isoform B (SALL4, Homo sapiens, UniProt Q9UJQ4-2, residues 1-616)
Notes: 8-mer, flanks averaged, mean of replicates
Target sequence (chain): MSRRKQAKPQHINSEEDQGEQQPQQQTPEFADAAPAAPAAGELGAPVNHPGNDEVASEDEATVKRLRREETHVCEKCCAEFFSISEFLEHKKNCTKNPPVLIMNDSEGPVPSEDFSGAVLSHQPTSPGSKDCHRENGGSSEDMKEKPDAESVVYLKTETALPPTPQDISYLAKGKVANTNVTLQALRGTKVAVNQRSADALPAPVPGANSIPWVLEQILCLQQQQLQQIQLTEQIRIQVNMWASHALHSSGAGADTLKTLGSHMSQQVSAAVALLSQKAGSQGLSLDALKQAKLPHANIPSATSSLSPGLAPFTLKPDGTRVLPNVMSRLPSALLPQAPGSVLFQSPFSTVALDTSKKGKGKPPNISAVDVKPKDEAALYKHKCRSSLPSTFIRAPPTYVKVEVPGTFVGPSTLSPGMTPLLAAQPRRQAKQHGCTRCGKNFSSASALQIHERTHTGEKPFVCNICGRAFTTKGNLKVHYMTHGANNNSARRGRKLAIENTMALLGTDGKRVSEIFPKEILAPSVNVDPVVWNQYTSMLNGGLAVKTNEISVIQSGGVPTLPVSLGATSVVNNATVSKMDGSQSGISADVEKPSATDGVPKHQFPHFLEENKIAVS
Strand | E-score
AGCAAAAA | 0.24
CGGAGACC | -0.249
ACGCTTCG | -0.131
GTTCGGCA | 0.0393

Study 3 — method: RNA Bind-n-Seq; molecule type: RNA; medium: in vitro; concentration: 1 µM; notes: whole 134-nt RNA, ends assumed; with: 150 mM KCl; reference: input library; direction: higher = stronger binding
Target: Ras GTPase-activating protein-binding protein 1, C-terminal RGG region (G3BP1, Homo sapiens, UniProt Q13283)
UniProt Q13283, sequence (whole entry, looked up): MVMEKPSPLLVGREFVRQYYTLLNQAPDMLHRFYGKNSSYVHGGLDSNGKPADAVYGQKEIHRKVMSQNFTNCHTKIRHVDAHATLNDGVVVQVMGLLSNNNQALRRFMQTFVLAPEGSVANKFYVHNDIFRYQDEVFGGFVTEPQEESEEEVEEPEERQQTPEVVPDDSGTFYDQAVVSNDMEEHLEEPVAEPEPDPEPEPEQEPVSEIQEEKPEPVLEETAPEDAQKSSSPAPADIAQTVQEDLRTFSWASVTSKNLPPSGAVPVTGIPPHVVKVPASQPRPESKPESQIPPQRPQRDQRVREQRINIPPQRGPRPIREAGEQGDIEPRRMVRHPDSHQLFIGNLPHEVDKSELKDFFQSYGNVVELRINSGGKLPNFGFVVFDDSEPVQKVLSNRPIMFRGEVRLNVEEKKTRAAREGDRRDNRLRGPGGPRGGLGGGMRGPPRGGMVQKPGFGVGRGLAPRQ
Constant ends, left off below: GGGAGUUCUACAGUCCGACGAUC … UGGAAUUCUCGGGUGUCAAGG
Strand | log2 enrichment
UGGGAGGUGGAUUUUGUUUAUUUUUUUAGCUCAUUUCCAGGGGUGGGAAUUUAUUUUUAAUAUGUGUCAUGAAUAAAGUUGUUUUUGAAA | 3.8
UGGCCCUGGUGGCAUGCGGGGAGGAAGAGGUGGCCUCAUGGAUCGUGGUGGUCCCGGUGGAAUUUUCAGAGGUGGCCGUGGUGGAGACAG | 1.22
AAGUCCUGUGCUACACAUCGUAUGUACCGAAUCGGGUUUUGGUUUUGGGGUUUUGGAAAGUAUUAUGUUACGCCGUUCGGAUCUGCACUU | -1.33
UGGAAGGUGGAUUUUGUUUAUUUUUUUAGCUCAUUUCCAGGGGUGGGAAUUUUUUUUUAAUAUGUGUCAUGAAUAAAGUUGUUUUUGAAA | 3.67
CAAGUCCUGUGCUACACAUCGUAUGUACCGAAUCGGGGUUUGGGUUUGGGUUUGGAAAGUAUUAUGUUACGCCGUUCGGAUCUGCACUUC | -0.896
CUGUGCUACACAUCGUAUGUACCGAAUCGGGGUUUUUUUGGGUUUUUUUGGUUUUUUUGGGGAAAGUAUUAUGUUACGCCGUUCGGAUCU | -1.29

Further values, each from its own experiment
Substance | target | test | system | conditions | how to read | measurement | result
PhoQ, residues 284 288 289 292 302 303 SNSSNI | PhoP, residues 12 14 15 18 19 LYHSL (Escherichia coli, UniProt P23836) | Sort-seq, measured: YFP reporter | E. coli | PhoQ-PhoP variant library, with: 10 µM Mg2+ | reference: high Mg2+ state, higher = stronger signaling | fold induction | 6.1

Some of these lines once more (study 1):
Strand | relative absorbance
AAAAAAGGTAGTCACATTACGAGGGTAAAA | 39.1 % of maximum
AAAAAAACAGCTCGGTGCCACTGTGGAAAA | 45.1 % of maximum
